Published values gathered from unrelated publications.
Each line is one published result; not all experiments were run side by side. ± gives the spread as reported.
EPHA4: Ephrin type-A receptor 4 (EPHA4, Homo sapiens, UniProt P54764)
UniProt P54764, sequence (whole entry, looked up): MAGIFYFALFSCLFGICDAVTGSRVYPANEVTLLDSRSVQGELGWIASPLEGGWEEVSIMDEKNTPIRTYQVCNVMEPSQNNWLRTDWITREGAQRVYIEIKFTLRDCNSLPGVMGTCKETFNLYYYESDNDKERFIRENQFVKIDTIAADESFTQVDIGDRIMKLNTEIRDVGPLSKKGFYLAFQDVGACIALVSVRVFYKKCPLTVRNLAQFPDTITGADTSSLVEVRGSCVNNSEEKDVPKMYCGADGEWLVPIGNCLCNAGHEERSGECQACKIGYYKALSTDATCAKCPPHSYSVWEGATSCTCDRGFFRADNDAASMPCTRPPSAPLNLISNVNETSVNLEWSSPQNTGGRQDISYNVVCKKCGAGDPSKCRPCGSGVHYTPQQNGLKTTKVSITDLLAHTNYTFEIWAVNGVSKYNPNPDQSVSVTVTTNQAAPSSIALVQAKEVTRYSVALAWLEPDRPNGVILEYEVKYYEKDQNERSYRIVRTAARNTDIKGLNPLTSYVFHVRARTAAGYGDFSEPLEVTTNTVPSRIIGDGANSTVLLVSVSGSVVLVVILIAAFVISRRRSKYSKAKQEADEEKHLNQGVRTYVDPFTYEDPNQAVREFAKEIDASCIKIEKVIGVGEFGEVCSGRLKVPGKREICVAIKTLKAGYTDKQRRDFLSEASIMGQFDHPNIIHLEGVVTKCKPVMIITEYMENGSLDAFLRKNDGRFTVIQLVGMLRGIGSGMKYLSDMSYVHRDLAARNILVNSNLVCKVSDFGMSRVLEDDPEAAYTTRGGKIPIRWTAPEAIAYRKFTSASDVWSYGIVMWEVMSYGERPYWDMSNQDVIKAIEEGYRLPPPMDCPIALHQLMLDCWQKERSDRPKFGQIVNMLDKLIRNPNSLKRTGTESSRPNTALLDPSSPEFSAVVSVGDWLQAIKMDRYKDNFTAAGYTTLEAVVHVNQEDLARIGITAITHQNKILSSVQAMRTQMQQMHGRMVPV
UniProt Q6W5P4, sequence (whole entry, unmodified, looked up): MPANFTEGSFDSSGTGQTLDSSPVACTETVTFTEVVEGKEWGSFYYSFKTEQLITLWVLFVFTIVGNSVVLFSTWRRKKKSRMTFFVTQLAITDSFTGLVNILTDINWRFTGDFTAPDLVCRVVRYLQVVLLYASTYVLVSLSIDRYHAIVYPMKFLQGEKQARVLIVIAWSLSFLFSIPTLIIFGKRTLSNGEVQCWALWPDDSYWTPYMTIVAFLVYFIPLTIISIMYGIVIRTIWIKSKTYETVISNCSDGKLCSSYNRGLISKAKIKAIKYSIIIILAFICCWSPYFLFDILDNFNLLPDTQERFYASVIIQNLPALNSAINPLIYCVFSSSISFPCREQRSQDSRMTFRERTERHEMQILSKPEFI
UniProt P21761, sequence (whole entry, looked up): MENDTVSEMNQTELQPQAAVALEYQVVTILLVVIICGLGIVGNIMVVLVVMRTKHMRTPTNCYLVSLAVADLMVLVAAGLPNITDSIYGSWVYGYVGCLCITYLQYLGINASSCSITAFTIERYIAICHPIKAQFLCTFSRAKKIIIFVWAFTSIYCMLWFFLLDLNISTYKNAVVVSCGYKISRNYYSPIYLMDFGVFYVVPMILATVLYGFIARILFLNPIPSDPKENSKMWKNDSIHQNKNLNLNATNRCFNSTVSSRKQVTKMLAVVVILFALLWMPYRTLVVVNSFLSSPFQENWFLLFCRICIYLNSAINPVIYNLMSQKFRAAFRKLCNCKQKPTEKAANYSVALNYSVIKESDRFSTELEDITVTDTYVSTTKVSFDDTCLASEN
UniProt Q03431, sequence (whole entry, looked up): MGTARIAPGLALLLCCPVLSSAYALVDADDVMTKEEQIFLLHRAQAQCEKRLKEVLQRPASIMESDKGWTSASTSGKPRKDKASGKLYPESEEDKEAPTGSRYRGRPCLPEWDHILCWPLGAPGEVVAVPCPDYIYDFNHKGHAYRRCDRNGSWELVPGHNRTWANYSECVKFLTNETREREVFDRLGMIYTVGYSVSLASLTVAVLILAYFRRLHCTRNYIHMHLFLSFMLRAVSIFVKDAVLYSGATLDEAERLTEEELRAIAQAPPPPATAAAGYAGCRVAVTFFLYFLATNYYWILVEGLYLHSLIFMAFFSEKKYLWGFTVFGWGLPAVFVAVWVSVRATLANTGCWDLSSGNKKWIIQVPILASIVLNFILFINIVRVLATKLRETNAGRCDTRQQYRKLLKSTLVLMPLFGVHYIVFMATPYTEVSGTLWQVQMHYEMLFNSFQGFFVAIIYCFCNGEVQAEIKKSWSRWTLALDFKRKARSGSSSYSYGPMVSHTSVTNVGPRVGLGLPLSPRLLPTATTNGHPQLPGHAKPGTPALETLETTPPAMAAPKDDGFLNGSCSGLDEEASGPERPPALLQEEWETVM
UniProt O14843, sequence (whole entry, looked up): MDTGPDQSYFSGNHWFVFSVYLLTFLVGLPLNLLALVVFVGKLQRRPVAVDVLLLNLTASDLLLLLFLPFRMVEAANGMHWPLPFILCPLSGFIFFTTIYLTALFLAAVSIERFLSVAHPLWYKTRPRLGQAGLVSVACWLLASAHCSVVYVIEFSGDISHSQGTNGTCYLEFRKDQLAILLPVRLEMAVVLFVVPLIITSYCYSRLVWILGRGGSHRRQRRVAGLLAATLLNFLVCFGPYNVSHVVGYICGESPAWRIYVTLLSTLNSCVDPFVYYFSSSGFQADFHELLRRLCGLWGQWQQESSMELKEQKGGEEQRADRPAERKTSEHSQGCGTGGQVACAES
UniProt P30969, sequence (whole entry, looked up): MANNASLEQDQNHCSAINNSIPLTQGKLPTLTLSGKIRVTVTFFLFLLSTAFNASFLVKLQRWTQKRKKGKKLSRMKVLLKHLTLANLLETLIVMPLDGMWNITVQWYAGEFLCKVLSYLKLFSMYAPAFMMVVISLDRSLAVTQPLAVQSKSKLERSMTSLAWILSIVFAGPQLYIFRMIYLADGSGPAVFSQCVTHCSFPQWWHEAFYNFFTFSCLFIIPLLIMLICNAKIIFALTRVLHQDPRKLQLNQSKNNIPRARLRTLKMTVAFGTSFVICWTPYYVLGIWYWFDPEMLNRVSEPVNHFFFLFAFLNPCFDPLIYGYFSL
UniProt P41149, sequence (whole entry, looked up): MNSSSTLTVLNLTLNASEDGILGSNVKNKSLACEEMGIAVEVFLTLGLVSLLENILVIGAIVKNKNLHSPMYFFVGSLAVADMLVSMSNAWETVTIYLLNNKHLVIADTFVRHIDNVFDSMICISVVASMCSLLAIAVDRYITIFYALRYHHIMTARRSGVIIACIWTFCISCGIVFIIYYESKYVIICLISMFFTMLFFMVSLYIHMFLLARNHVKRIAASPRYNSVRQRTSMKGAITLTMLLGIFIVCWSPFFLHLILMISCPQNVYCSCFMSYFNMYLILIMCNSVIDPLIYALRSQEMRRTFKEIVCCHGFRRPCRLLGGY
UniProt P55055, sequence (whole entry, looked up): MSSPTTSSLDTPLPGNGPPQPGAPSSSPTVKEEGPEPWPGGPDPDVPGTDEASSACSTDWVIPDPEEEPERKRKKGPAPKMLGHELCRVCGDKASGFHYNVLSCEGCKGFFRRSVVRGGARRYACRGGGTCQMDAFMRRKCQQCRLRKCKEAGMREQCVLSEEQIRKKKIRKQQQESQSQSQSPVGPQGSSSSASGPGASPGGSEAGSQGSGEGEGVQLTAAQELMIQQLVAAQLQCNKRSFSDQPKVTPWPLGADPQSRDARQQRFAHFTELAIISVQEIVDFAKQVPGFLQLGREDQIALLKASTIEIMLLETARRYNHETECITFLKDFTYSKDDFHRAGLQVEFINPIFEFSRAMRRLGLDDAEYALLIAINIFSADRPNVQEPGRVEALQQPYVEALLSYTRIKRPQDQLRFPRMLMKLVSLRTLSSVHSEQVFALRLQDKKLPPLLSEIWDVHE

target	test	test system	setting	EC50 [nM]	SMILES
FFAR3 (Homo sapiens, UniProt O14843)	agonist	–	–	107000	CCCC(=O)O
EPHA4	target engagement in cells, BRET	–	–	450	COc1cc(-c2cnc3nc2NCCCNS(=O)(=O)c2cccc(c2)N3)ccc1F
Gonadotropin-releasing hormone receptor (Rattus norvegicus, UniProt P30969)	inositol phosphate accumulation, agonist	WPE-1-NB26-3 expressing Gonadotropin-releasing hormone receptor	60 min, 37 °C, with: 10 mM LiCl	0.9 ± 0.2	N=C(N)NCCC[C@@H](NC(=O)[C@H](Cc1c[nH]cn1)NC(=O)[C@H](CO)NC(=O)[C@H](Cc1c[nH]c2ccccc12)NC(=O)[C@H](Cc1c[nH]cn1)NC(=O)[C@@H]1CCC(=O)N1)C(=O)N[C@@H](Cc1c[nH]c2ccccc12)C(=O)N[C@@H](Cc1ccc(O)cc1)C(=O)N1CCC[C@H]1C(=O)NCC(N)=O
CXCR4 (Homo sapiens, UniProt P61073)	β-arrestin recruitment, agonist	–	–	10700	COc1cccc(C2=Nn3c(nnc3-c3ccccc3OC)SC2)c1
NPSR1 (Homo sapiens, UniProt Q6W5P4, N107I)	calcium signal, agonist, fluorescence	–	–	563	NC(=O)C[C@H](NC(=O)[C@H](CCCCNC(=O)C(F)(F)F)NC(=O)[C@H](Cc1ccccc1)NC(=O)[C@@H](N)CO)C(N)=O
Oxysterols receptor LXR-beta, ligand-binding domain (NR1H2, Homo sapiens, UniProt P55055)	agonist	–	concentration not given	1410 ± 20	CN(C(=O)c1ccccc1Cl)c1ccc(C(O)(C(F)(F)F)C(F)(F)F)cc1
Melanocortin receptor 5 (Mus musculus, UniProt P41149)	agonist	–	–	20 ± 3.8	C#CC[C@H](NC(=O)[C@H](Cc1ccccc1)NC(=O)[C@H](C)NC(=O)[C@H](CC(N)=O)NC(=O)[C@H](Cc1c[nH]c2ccccc12)NC(=O)[C@H](CCCNC(=N)N)NC(=O)[C@@H](Cc1ccccc1)NC(=O)[C@H](Cc1c[nH]cn1)NC(=O)[C@H](CN=[N+]=[N-])NC(=O)[C@@H](N)Cc1ccc(O)cc1)C(=O)N[C@@H](Cc1ccc(O)cc1)C(N)=O
EPHA4	target engagement in cells, BRET	–	–	60	COCCOc1ccc2cc1S(=O)(=O)NCCCNc1nc(ncc1-c1ccc(F)c(OC)c1)N2
Thyrotropin-releasing hormone receptor (Mus musculus, UniProt P21761)	calcium signal, agonist, fluorescence	–	–	3550	Cn1cnc(C[C@H](NC(=O)C2CCCCN2)C(=O)N2CCC[C@H]2C(N)=O)c1 (stereo partly shown)
PTH1R (Homo sapiens, UniProt Q03431)	cAMP production, agonist, GloSensor luminescence	SGS-72	10 to 15 min	0.27 ± 0.02	CC[C@H](C)[C@H](NC(=O)[C@H](CCC(=O)O)NC(=O)[C@H](CO)NC(=O)[C@@H](NC(=O)[C@@H](N)CO)C(C)C)C(=O)N[C@@H](CCC(N)=O)C(=O)N[C@@H](CC(C)C)C(=O)N[C@@H](CCSC)C(=O)N[C@@H](Cc1c[nH]cn1)C(=O)N[C@@H](CC(N)=O)C(=O)N[C@@H](CC(C)C)C(=O)NCC(=O)N[C@@H](CCCCN)C(=O)N[C@@H](Cc1c[nH]cn1)C(=O)N[C@@H](CC(C)C)C(=O)N[C@@H](CC(N)=O)C(=O)N[C@@H](CO)C(=O)N[C@@H](CCSC)C(=O)N[C@@H](CCC(=O)O)C(=O)N[C@@H](CCCNC(=N)N)C(=O)N[C@H](C(=O)N[C@@H](CCC(=O)O)C(=O)N[C@@H](Cc1c[nH]c2ccccc12)C(=O)N[C@@H](CC(C)C)C(=O)N[C@@H](CS)C(=O)N[C@@H](CCCCN)C(=O)N[C@@H](CCCCN)C(=O)N[C@@H](CC(C)C)C(=O)N[C@@H](CCC(N)=O)C(=O)N[C@@H](CC(=O)O)C(=O)N[C@H](C(=O)N[C@@H](Cc1c[nH]cn1)C(=O)N[C@@H](CC(N)=O)C(=O)N[C@@H](Cc1ccccc1)C(=O)O)C(C)C)C(C)C

A few entries again:
target	test	test system	setting	EC50 [nM]	SMILES
Thyrotropin-releasing hormone receptor (Mus musculus, UniProt P21761)	calcium signal, agonist, fluorescence	–	–	3550	Cn1cnc(C[C@H](NC(=O)C2CCCCN2)C(=O)N2CCC[C@H]2C(N)=O)c1 (stereo partly shown)
